Assay results collected from several papers.
Each line is one published result; not all experiments were run side by side.
CDK8 with cyclin C: Cyclin-dependent kinase 8, with cyclin C (CDK8, Homo sapiens, UniProt P49336)
Sequence of UniProt P49336 (whole entry, looked up): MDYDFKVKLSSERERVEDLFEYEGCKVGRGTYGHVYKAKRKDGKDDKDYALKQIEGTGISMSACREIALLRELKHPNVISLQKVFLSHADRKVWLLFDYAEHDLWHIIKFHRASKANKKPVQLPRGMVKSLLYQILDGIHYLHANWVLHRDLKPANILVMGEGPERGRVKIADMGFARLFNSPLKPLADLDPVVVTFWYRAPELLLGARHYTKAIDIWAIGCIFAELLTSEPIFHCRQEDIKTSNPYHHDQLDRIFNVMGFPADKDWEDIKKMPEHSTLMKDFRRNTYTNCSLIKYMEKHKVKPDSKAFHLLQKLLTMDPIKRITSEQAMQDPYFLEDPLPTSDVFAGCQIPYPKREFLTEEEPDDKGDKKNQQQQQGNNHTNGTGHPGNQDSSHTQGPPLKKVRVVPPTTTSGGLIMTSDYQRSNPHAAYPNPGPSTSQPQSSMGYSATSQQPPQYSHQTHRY
CDK8: Cyclin-dependent kinase 8 (CDK8, Homo sapiens, UniProt P49336)

CN1CCN(C(=O)c2ccc3cc(CCNc4ccnc5ccc(C#N)cc45)ccc3c2)CC1 has a residence time of 13.6 min (CDK8 with cyclin C; TR-FRET kinetics).
Under “percent of control”, C1=C/COCc2cc(ccc2OCCN2CCCC2)Nc2nccc(n2)-c2cccc(c2)COC/1 is recorded as 75% (CDK8; concentration not given).
For c1cnc2ccc(Nc3nc(NC4CC4)c4nc[nH]c4n3)cc2c1, the remaining activity was 90% (CDK8; kinase activity, inhibitor, SelectScreen kinase profiling; 1 µM; relative to: control).
The remaining binding of C[C@@H](c1ccc(-n2cnc3c(N)ncnc32)cc1)N1CCc2nn(C)c(Cc3ccccc3)c2C1=O is reported as 34% (CDK8; KINOMEscan; 0.1 µM; relative to: DMSO control).
O=C(NC1CCC1)c1ccc2nc(-c3cccc(NS(=O)(=O)NCCN4CCCCC4)c3)cn2c1 has a remaining activity of 86% (CDK8; enzyme activity; 10 µM).
The residence time of CN1CCN(C(=O)c2ccc3cc(CCNc4ncnc5ccc(C#N)cc45)ccc3c2)CC1 is reported as 5.13 min (CDK8 with cyclin C; TR-FRET kinetics).
C=CC(=O)N1CCC(C(=O)NCC(=O)N2CCN(c3nc(-c4cnc(N)nc4C(F)F)nc(N4CCOCC4)n3)CC2)CC1 has a remaining binding of 100% (CDK8; KINOMEscan; 1 µM).
For C=CC(=O)N1CCC(COCC(=O)N2CCN(c3nc(-c4cnc(N)nc4C(F)F)nc(N4CCOC[C@@H]4C)n3)CC2)CC1, the remaining binding was 96% (CDK8; KINOMEscan; 1 µM; relative to: DMSO control).

Some of these lines once more:
Under “percent of control”, C1=C/COCc2cc(ccc2OCCN2CCCC2)Nc2nccc(n2)-c2cccc(c2)COC/1 is recorded as 75% (CDK8; concentration not given).
